Results from different studies.
Protocols differ between the studies behind these lines. Several values in a cell are separate wells, animals, samples, runs or records. ± gives the spread as reported.

| Compound | tested on | assay | system | setting | measurement | value |
| --- | --- | --- | --- | --- | --- | --- |
| Cc1onc(-c2c(Cl)cccc2Cl)c1C(=O)N[C@@H]1C(=O)N2[C@@H]1SC(C)(C)[C@@H]2C(=O)O | PBP1b Streptococcus pneumoniae | Bocillin-FL competition | live Streptococcus pneumoniae cells | 30 min, added: Bocillin-FL 600 nM | kinact/KI | 2800 ± 780 M⁻¹ s⁻¹ |
| Oc1cccc(CN2[C@@H]3CC[C@H]2CN(CCCc2ccccc2)C3)c1 | mu opioid receptor (human) | β-arrestin-2 recruitment |  |  | Emax | 0% |
| O=[N+]([O-])O | sulfate/chloride exchanger, human |  | neutrophils | external binding site | Km | 18400 µM |
| CC(=O)SCC[N+](C)(C)C | acetylcholinesterase, mammalian red blood cell | enzyme activity, substrate, Ellman | red blood cell ghosts | pH 7.4 | Km | 70 µM |
| Oc1cccc(N2C[C@H]3CC[C@@H](C2)N3CCCc2ccccc2)c1 | mu opioid receptor (human) | β-arrestin-2 recruitment |  |  | Emax | 18.5 ± 0.4% |
| OCCN1CCN(CC/C=C2/c3ccccc3Sc3ccc(C(F)(F)F)cc32)CC1 | Plasmodium falciparum |  | 7G8 |  | IC50 | 2.51 µM |
| Cc1cc(C)n2c1C=C1C=CC(CCC(=O)Nc3ccc(OCC(=O)N[C@@H]4C(=O)N5[C@@H]4SC(C)(C)[C@@H]5C(=O)[O-])cc3)=[N+]1[B-]2(F)F.[Na+] | PBP3, Streptococcus pneumoniae | inhibitor | live Streptococcus pneumoniae cells |  | kinact/Ki | 52300 ± 9400 M⁻¹ s⁻¹ |
| Oc1cccc(N2[C@@H]3CC[C@H]2CN(Cc2ccccc2)C3)c1 | mu opioid receptor (human) | β-arrestin-2 recruitment |  |  | Emax | 0% |
| c1ccc(C(NCCNC(c2ccccc2)c2ccccc2)c2ccccc2)cc1 | CXCR1/CXCR2 (human) | IL-8 binding |  | 10 µM | inhibition | 1% |
| O=C(Nc1cccnn1)N1CCN([C@@H]2CCOc3cc(C(F)(F)F)ccc32)CC1 | sodium channel site 2 | binding |  | 20 µM | inhibition | 76% |
| CO/N=C(\C(=O)N[C@@H]1C(=O)N2C(C(=O)O)=C(COC(C)=O)CS[C@H]12)c1csc(N)n1 | PBP1b Streptococcus pneumoniae | Bocillin-FL competition | live Streptococcus pneumoniae cells | 30 min, added: Bocillin-FL 600 nM | kinact/KI | 52000 ± 4000 M⁻¹ s⁻¹ |
| C/C(=C/C=C/[C@@H](C)C(=O)O)[C@H]1CN[C@H](C(=O)O)[C@H]1CC(=O)O | GluK2/GluK5 kainate receptor rat | peak current, agonist, whole-cell patch clamp |  | pH 7.4, holding potential -70 mV, extrapolated | EC50 | 125 ± 29.5 µM |
| Cc1cc(F)cc2c(CCC(=O)N[C@@H]3C(=O)NC[C@H]3O)c(-c3ccc(F)cc3)[nH]c12 | GABAA central benzodiazepine site | binding |  | 10 µM, added: flunitrazepam | inhibition | -6% |
| CC1(C)S[C@@H]2[C@H](NC(=O)Cc3ccccc3)C(=O)N2[C@H]1C(=O)O | PBP1b Streptococcus pneumoniae | Bocillin-FL competition | live Streptococcus pneumoniae cells | 30 min, added: Bocillin-FL 600 nM | kinact/KI | 41000 ± 11000 M⁻¹ s⁻¹ |
| C[C@H](C(=O)N[C@H]1COc2ccccc2[C@@H]1S(C)(=O)=O)c1ccc(F)cc1 | adrenergic alpha1 receptor, rat | binding |  | 10 µM, Eurofins selectivity panel | inhibition | -10% |
| Oc1cccc(N2[C@@H]3CC[C@H]2CN(CCCc2ccccc2)C3)c1 | mu opioid receptor (human) | β-arrestin-2 recruitment |  |  | Emax | 0% |
| CC1(C)S[C@@H]2[C@H](/N=C/N3CCCCCC3)C(=O)N2[C@H]1C(=O)O | PBP3 Streptococcus pneumoniae | Bocillin-FL competition | live Streptococcus pneumoniae cells | 30 min, added: Bocillin-FL 600 nM | kinact/KI | 620 ± 150 M⁻¹ s⁻¹ |
| N#CC(=Cc1ccc(O)cc1)C(=O)O | sulfate/chloride exchanger, human | sulfate influx, inhibitor | neutrophils | added: 2 µM nigericin, 85 mM K+ | Ki | 252 µM and 250 µM |
| CC1(C)S[C@@H]2[C@H](NC(=O)[C@H](N)c3ccccc3)C(=O)N2[C@H]1C(=O)O | PBP1b Streptococcus pneumoniae | Bocillin-FL competition | live Streptococcus pneumoniae cells | 30 min, added: Bocillin-FL 600 nM | kinact/KI | 2000 ± 310 M⁻¹ s⁻¹ |
| O=[Se](=O)(O)O | sulfate/chloride exchanger, human | sulfate influx, inhibitor | neutrophils | external site, added: 2 µM nigericin, 85 mM K+ | Ki | 70900 µM |
| COc1ccc(N2C(=O)N(c3c(C)cccc3Cl)Cc3cnc(Nc4ccc(C5CCN(C)CC5)cc4OC)nc32)nc1 | PKC-beta2, human | kinase activity |  | 0.5 µM | inhibition | -0.85% |
| COc1cc(Nc2ncc(F)c(Nc3ccc4c(n3)NC(=O)C(C)(C)O4)n2)cc(OC)c1OC | TNF (non-selective) |  |  |  | IC50 | > 10 µM |
| O=C1CCOc2ccccc21 | Aedes aegypti OR6 with Orco | agonist, two-electrode voltage clamp | Xenopus oocytes |  | EC50 | 6.84 µM |
| CN1C[C@H]2CC[C@@H](C1)N2c1cccc(O)c1 | mu opioid receptor (human) | β-arrestin-2 recruitment |  |  | EC50 | > 50 µM |
| Cc1ccc(OP(=O)(Oc2ccc(C)cc2)Oc2ccc(C)cc2)cc1 | mouse carboxylesterase |  | mouse, liver | dose not given, added: MUA substrate | carboxylesterase activity | decreased |
| COc1cccc(OC)c1C(=O)N[C@@H]1C(=O)N2[C@@H]1SC(C)(C)[C@@H]2C(=O)O | PBP1b Streptococcus pneumoniae | Bocillin-FL competition | live Streptococcus pneumoniae cells | 30 min, added: Bocillin-FL 600 nM | kinact/KI | 650 ± 430 M⁻¹ s⁻¹ |
| N[C@@H]1C[C@H]1c1ccccc1 (racemic) | H+/organic cation antiporter | cell uptake | hCMEC/D3 |  | Km | 75.4 µM |
| C=CCc1ccccc1OCC(O)CNC(C)C (stereo not shown) | Plasmodium falciparum |  | 7G8 |  | IC50 | 3.16 µM |

Some of these lines once more:
| Compound | tested on | assay | system | setting | measurement | value |
| --- | --- | --- | --- | --- | --- | --- |
| CN1C[C@H]2CC[C@@H](C1)N2c1cccc(O)c1 | mu opioid receptor (human) | β-arrestin-2 recruitment |  |  | EC50 | > 50 µM |
| c1ccc(C(NCCNC(c2ccccc2)c2ccccc2)c2ccccc2)cc1 | CXCR1/CXCR2 (human) | IL-8 binding |  | 10 µM | inhibition | 1% |
